# Results collected from several papers.
# Each line is one published result; not all experiments were run side by side. Several values in a cell are separate wells, animals, samples, runs or records.
# Cell line: HaCaT
Structure (SMILES),test,setting,scale,endpoint,result
CC[C@H](C)[C@H](NC(=O)[C@H](C)NC(=O)[C@H](CCCCN)NC(=O)[C@H](CC(C)C)NC(=O)[C@@H](N)Cc1ccccc1)C(=O)N[C@@H](CCCCN)C(=O)N[C@@H](CCCCN)C(=O)N[C@@H](Cc1ccccc1)C(=O)NCC(=O)N[C@@H](CCCCN)C(=O)N[C@@H](CCC(=O)O)C(=O)N[C@@H](Cc1ccccc1)C(=O)N[C@@H](CCCCN)C(=O)N[C@@H](CCCCN)C(=O)N[C@H](C(=O)NCC(=O)N[C@@H](C)C(=O)N[C@@H](CCCCN)C(=O)N[C@@H](CC(C)C)C(=O)N[C@@H](CCCCN)C(=O)O)[C@@H](C)CC,MTT,8 mg/L,relative to: untreated,cell growth,92.2% and 95.7% and 89.8% and 98.2% and 97.1%
CC[C@H](C)[C@H](N)C(=O)NCC(=O)NCC(=O)N[C@@H](CCCCN)C(=O)N[C@@H](CC(N)=O)C(=O)NCC(=O)NCC(=O)N[C@@H](Cc1c[nH]c2ccccc12)C(=O)N[C@@H](Cc1c[nH]c2ccccc12)C(=O)NCC(=O)N[C@@H](CCCCN)C(=O)N[C@H](C(=O)N[C@@H](CCCNC(=N)N)C(=O)N[C@@H](Cc1c[nH]c2ccccc12)C(=O)NCC(=O)N[C@@H](CC(C)C)C(=O)N[C@@H](CC(C)C)C(=O)N[C@@H](CO)C(=O)N[C@@H](CC(C)C)C(=O)N[C@H](C(=O)N[C@@H](CCCCN)C(=O)NCC(=O)N[C@H](C(=O)N[C@@H](C)C(=O)NCC(=O)N[C@@H](CCC(N)=O)C(=O)N[C@@H](CCCNC(=N)N)C(=O)N[C@@H](CC(C)C)C(=O)N[C@@H](CC(C)C)C(=O)O)[C@@H](C)CC)[C@@H](C)CC)C(C)C,"cytotoxicity, MTT","24 h, 37 °C",,IC50,7.16 µM
Cc1ccc(NS(=O)(=O)c2c(C(=O)N3CCCCCC3)c(C)n(C)c2C)c(Cl)c1,,"1.235 µM, 60 h",,viability,97.3% and 99.1%
CC[C@H](C)[C@@H]1NC(=O)[C@@H](CCCNC(=N)N)NC(=O)[C@@H](NC(=O)[C@@H](CC(C)C)NC(=O)[C@H](C)NC(=O)[C@H](C)NC(=O)[C@@H]2CCCN2C(=O)[C@@H](CC(C)C)NC(=O)[C@@H](NC(=O)[C@@H](CCCNC(=N)N)NC(=O)[C@@H](CC(C)C)NC(=O)[C@@H](CC(C)C)NC(=O)[C@@H](NC(=O)[C@@H](CCCNC(=N)N)NC(=O)[C@@H](CC(C)C)NC(=O)[C@@H](NC(=O)[C@@H](NC(=O)CNC(=O)[C@@H](CC(C)C)NC(=O)[C@@H](N)Cc2ccccc2)[C@@H](C)O)C(C)C)C(C)C)C(C)C)CSSC[C@@H](C(=O)O)NC(=O)[C@@H](CCCNC(=N)N)NC(=O)[C@@H](CCCNC(=N)N)NC(=O)[C@H](Cc2ccccc2)NC1=O,"cytotoxicity, MTT",20 h,,IC50,40 µM
COc1cc(/C=C/C(=O)Oc2cc(C(F)(F)F)ccc2C(F)(F)F)ccc1O,MTT,"24 h, 10% FBS",,subcytotoxic concentration,10 µM
CSCC[C@H](NC(=O)[C@H](CCCCN)NC(=O)[C@H](CC(N)=O)NC(=O)[C@H](C)NC(=O)[C@H](C)NC(=O)[C@H](CCCCN)NC(=O)[C@H](C)NC(=O)[C@@H](NC(=O)CNC(=O)[C@H](Cc1c[nH]c2ccccc12)NC(=O)[C@H](Cc1ccc(O)cc1)NC(=O)[C@H](CC(C)C)NC(=O)[C@H](CCCCN)NC(=O)CNC(=O)[C@@H](NC(=O)[C@H](Cc1c[nH]c2ccccc12)NC(=O)CNC(=O)[C@H](Cc1ccccc1)NC(=O)[C@H](CCCCN)NC(=O)[C@H](CC(C)C)NC(=O)[C@@H](NC(=O)[C@@H](NC(=O)[C@H](CCCNC(=N)N)NC(=O)[C@H](Cc1c[nH]c2ccccc12)NC(=O)CN)[C@@H](C)O)C(C)C)C(C)C)C(C)C)C(=O)N[C@@H](C)C(=O)N[C@@H](CCCNC(=N)N)C(=O)N[C@@H](Cc1ccc(O)cc1)C(=O)N[C@@H](CC(C)C)C(=O)N[C@H](C(=O)N[C@@H](CCCCN)C(=O)N[C@@H](C)C(=O)N[C@H](C(=O)N[C@@H](Cc1ccc(O)cc1)C(=O)NCC(=O)N[C@@H](CCCNC(=N)N)C(=O)N[C@H](C(=O)N[C@@H](CCCNC(=N)N)C(=O)N[C@@H](CCCCN)C(=O)N[C@@H](CC(=O)O)C(=O)N[C@@H](C)C(=O)O)C(C)C)C(C)C)[C@@H](C)O,"cytotoxicity, MTT","24 h, 37 °C",,IC50,4.82 µM
COC(=O)/C=C/c1ccc(O)c(OC)c1,"cell growth or viability, MTT",24 h,,CC50,> 250 µM
CC(C)C[C@H](NC(=O)[C@H](CC(N)=O)NC(=O)[C@H](CCCNC(=N)N)NC(=O)[C@@H](CC(C)C)NC(=O)[C@H](Cc1ccc(-c2ccccc2)cc1)NC(=O)[C@H](CC(=O)O)NC(=O)[C@H](CCCCN)NC(=O)[C@@H](CC(C)C)NC(=O)[C@H](CCCNC(=N)N)NC(=O)[C@H](CCC(N)=O)NC(=O)[C@@H](NC(=O)[C@@H](CC(C)C)NC(=O)[C@H](CCCNC(=N)N)NC(=O)[C@H](CCCCN)NC(=O)[C@H](Cc1ccc(-c2ccccc2)cc1)NC(=O)CN)C(C)C)C(=O)N[C@H](C(N)=O)C(C)C,"cell viability, MTS","1 h, 37 °C, 10% FBS",,LC50,40 µM
COc1cc(/C=C/C(=O)Oc2cc(C(F)(F)F)ccc2C(F)(F)F)ccc1OC(C)=O,"cell growth or viability, MTT",24 h,,CC50,66.7 µM
CC[C@H](C)[C@H](NC(=O)[C@H](C)NC(=O)[C@H](CCCCN)NC(=O)[C@H](CCCCN)NC(=O)[C@@H](N)CCCNC(=N)N)C(=O)N[C@@H](CCCCN)C(=O)N[C@@H](CC(C)C)C(=O)N[C@H](C(=O)N[C@@H](CCCCN)C(=O)N[C@@H](CCCCN)C(=O)N[C@@H](CC(C)C)C(=O)N[C@H](C(=O)N[C@@H](CCCCN)C(=O)N[C@@H](CCCCN)C(=O)N[C@@H](CC(C)C)C(=O)N[C@@H](CCCCN)C(=O)N[C@@H](CCCCN)C(=O)N[C@@H](C)C(=O)N[C@@H](CC(C)C)C(=O)N[C@@H](CCCCN)C(=O)O)C(C)C)C(C)C,MTT,8 mg/L,relative to: untreated,cell growth,89.9% and 98.9% and 90.9% and 92.1% and 85.1%
